# Measured values of several laboratories.
# Each numbered part is a random draw from the data of one study; scales do not carry over between parts. Substitutions count along the parent as printed.

# Block 1
# Target: RNA binding protein fox-1 homolog 2, RRM domain, GST-SBP tag (RBFOX2, Homo sapiens, UniProt O43251-10, residues 100-194)
# Method: RNA Bind-n-Seq
# Form: RNA
# Medium: in vitro
# Concentration: 365 nM
# Setting: natural RNA segment, single round, ends assumed
# Baseline: no-protein control
# Direction: higher = stronger binding
# Shared flanks, not repeated: GGGAGUUCUACAGUCCGACGAUC … UGGAAUUCUCGGGUGCCAA
# Construct (chain): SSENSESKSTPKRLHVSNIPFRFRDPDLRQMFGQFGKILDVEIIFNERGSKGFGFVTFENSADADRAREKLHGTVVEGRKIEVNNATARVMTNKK
Sequence,RBNS enrichment (R)
ACAAAACACACAAUUUGGGAUUUUGACUCUUCAGUUUUGACCUCACUUCUCCUGGAUCCAACCUGACAGGAGAUGACUGGAUUGCUGGGGUAGAGAAGGAAAGGCUGUCC,0.344
CGCCCACCCUCUGCCUGGUCGCGCUCUUCAGUCCCACGAGGAGCUGACACGUCCUCUCUGGCCGCCAUCCGGCUCGCACAGGGGCCUCCCAGCGCCUCAGGCCCCGCGUU,0.645
AGAUGGUAACGAUUCCGAUGAGUUCAUUGAGCUGAGCAACGGACCCUGGGAAGACAUGAAUGUGCAGACCAUUGCAGAGCUUUUGAUUUCAUCUAGGUUCUGAAUUACAG,0.793
UGGAGACUCUAGCUGGAGCAGUUGGCUCCUAUUGGCUGUGUUUGCCUGUCUGUCUUCCUGUCACGUGGAUCCUUGGUUCUUUCCCGGCCAUUCCAUUCCCAGGGAGUGAG,1.08
UGUUUGCCUUCGCAGCACCCAGCAUCCAAGGACGGACUUCAGGGGACACGUGUAGUGUGUUAAGAUGUGCUGAUGGAAACACUAUCUUCAAAACUAAAAAUCAGCCACAG,0.408
CUGAUGCUCUGUUACUAGAAUUACAAGGACCUGAUUUUUUUGUUUCUUUGUUUUUUUUAAAAAAAACAAAAACAGAGGCCAGAACUAUUGUUUGAAAUUAGUAACAAUGC,0.442
CCAAAGCCGAGCAUCAUAGAGAAUGAAUCCCUCUGGAAACACUUACUCUCAGAAAAUGACACUCUUCCCACAUGUGGGGUUUUCUCAGUGUUCUAAGUUUUUAAGAAGUU,0.445
GUGGGAGCCGCCCUUCUUCAUCUUAGAGAACCAAGUGCCUCCUGUCUGAAAGGUGAGGGUGGCCUGACCUGGGCCUCUCCCUGCCCCUCCAUAGGUGGGUUUGUAGGGUC,0.204

# Block 2
# Target: CCNB2, cyclin fold, Cln2 fusion (human)
# Method: yeast growth competition, sequencing
# Medium: yeast
# Setting: weak parent motif
# Baseline: not given
# Direction: higher = stronger binding
# Starting sequence: RBL1 docking peptide (human); GSAKRRLFGEDPP; partner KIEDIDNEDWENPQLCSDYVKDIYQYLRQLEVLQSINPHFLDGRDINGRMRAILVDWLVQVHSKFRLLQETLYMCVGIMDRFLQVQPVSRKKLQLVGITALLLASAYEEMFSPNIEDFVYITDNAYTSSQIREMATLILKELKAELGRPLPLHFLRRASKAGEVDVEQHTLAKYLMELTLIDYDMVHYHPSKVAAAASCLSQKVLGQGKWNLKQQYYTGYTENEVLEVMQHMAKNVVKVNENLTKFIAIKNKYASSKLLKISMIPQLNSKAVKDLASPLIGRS
Change,normalised enrichment score
P13S,-0.0584
P13I,0.496
E10C,0.0589
R5W,-0.357
G1T,0.833
A3F,0.881
P13D,-0.0763

# Block 3
# Target: Max dimerization protein 1, bHLH-zipper, MAX partner unstated (MXD1, Homo sapiens, UniProt Q05195, residues 56-136)
# Method: protein-binding microarray
# Form: double-stranded DNA, one strand shown
# Medium: in vitro
# Concentration: not given
# Setting: k-mer, scored over probes, only values ≥0.25
# Direction: higher = stronger binding
# Residues (chain): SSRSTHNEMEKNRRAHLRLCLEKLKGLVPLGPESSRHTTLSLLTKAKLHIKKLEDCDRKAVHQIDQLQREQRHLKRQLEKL
Sequence,E-score
ATGTGTGA,0.257
ATAACGTG,0.383
CCACGCTA,0.334
CATGCCTA,0.371
CGTGGGAA,0.352
ACGGGGGC,0.318
AATCACAT,0.279
GCATGTAC,0.308
AAAGCACG,0.329

# Other studies, line by line
Molecule,target,test,system,setting,how to read,measurement,result
"PhoQ, residues 284 288 289 292 302 303 SLSVQF","PhoP, residues 12 14 15 18 19 LHTVM (Escherichia coli, UniProt P23836)","Sort-seq, item: YFP reporter",E. coli,"PhoQ-PhoP variant library, together with: 10 µM Mg2+","baseline: high Mg2+ state, higher = stronger signaling",fold induction,1.82

# For quick reference, copied from above (block 2):
Change,normalised enrichment score
E10C,0.0589
R5W,-0.357
G1T,0.833
A3F,0.881
